Published values gathered from unrelated publications.
Each line is one published result; not all experiments were run side by side. Numbers after ± are the reported error.
Matrix: plasma

C#C[C@]1(O)CC[C@H]2[C@@H]3CCc4cc(O)ccc4[C@H]3CC[C@@]21C
Cmax (human female; single dose oral contraceptive, together with: ritlecitinib 50 mg once daily multiple doses): 62.2 ng/mL

C[C@H](CCC(=O)NCC(=O)O)[C@H]1CC[C@H]2[C@@H]3CC[C@@H]4C[C@H](OS(=O)(=O)O)CC[C@]4(C)[C@H]3C[C@H](O)[C@]12C
Cmax (human; concentration not given, endogenous control diurnal): 520 ± 180 nM

NCCCS(=O)(=O)O
Cmax (human; oral, 256.5 mg twice daily, day 7, capsule, fasted, dosed days 2-7): 1190 ng/mL

C=CC(=O)NC1CCN(c2ncc3ncnc(Nc4ccc(Oc5ccc6c(c5)ncn6C)c(C)c4)c3n2)CC1
Cmax (human, male; oral, 240 mg single dose, fed, geometric mean): 4670 nM

O=C(c1nc2n(n1)[C@H](c1ccccc1)C[C@@H]2F)C1CC1
Cmax (geometric LS mean; human, fasted; oral, 75 mg single dose): 783 ng/mL

Cn1ncnc1[C@H]1c2n[nH]c(=O)c3cc(F)cc(c23)N[C@@H]1c1ccc(F)cc1
Cmax (human patients; oral, 600 µg/m2 twice daily day 1, day 5, dose level DL5, median, together with: temozolomide 40 mg/m2 daily days 2-6): 23.5 ng/mL

CNC(=O)c1c(C)oc2cc(Oc3ncnc4cc(OC)c(OC)cc34)ccc12
Cmax (human, mild hepatic impairment; oral, 2 mg, single dose): 136 ng/mL

C=CC(=O)N1CCC[C@@H](n2c(=O)n(-c3ccc(Oc4ccccc4)cc3)c3c(N)nccc32)C1
Cmax (human, fasted; oral, 120 mg, geometric mean): 39.2 ng/mL

NC(=O)c1[nH]cnc1N
Cmax (human patients; IV infusion over 1 h, 1000 mg/m^2 DTIC, cycle 2 day 1, co-administered with co-drug): 1240 ng/mL

CN1C(=O)[C@@H](NC(=O)c2nnc(Cc3ccccc3)[nH]2)COc2cccnc21
Cmax (human; oral, 600 mg once daily, day 14, geometric mean): 5810 ng/mL

CC[C@H](C)[C@H](NC(=O)[C@H](Cc1ccccc1)NC(=O)[C@H](CCC(=O)O)NC(=O)[C@H](CCCCNC(=O)COCCOCCNC(=O)COCCOCCNC(=O)CC[C@H](NC(=O)CCCCCCCCCCCCCCCCC(=O)O)C(=O)O)NC(=O)[C@H](C)NC(=O)[C@H](C)NC(=O)[C@H](CCC(N)=O)NC(=O)CNC(=O)[C@H](CCC(=O)O)NC(=O)[C@H](CC(C)C)NC(=O)[C@H](Cc1ccc(O)cc1)NC(=O)[C@H](CO)NC(=O)[C@H](CO)NC(=O)[C@@H](NC(=O)[C@H](CC(=O)O)NC(=O)[C@H](CO)NC(=O)[C@@H](NC(=O)[C@H](Cc1ccccc1)NC(=O)[C@@H](NC(=O)CNC(=O)[C@H](CCC(=O)O)NC(=O)C(C)(C)NC(=O)[C@@H](N)Cc1cnc[nH]1)[C@@H](C)O)[C@@H](C)O)C(C)C)C(=O)N[C@@H](C)C(=O)N[C@@H](Cc1c[nH]c2ccccc12)C(=O)N[C@@H](CC(C)C)C(=O)N[C@H](C(=O)N[C@@H](CCCNC(=N)N)C(=O)NCC(=O)N[C@@H](CCCNC(=N)N)C(=O)NCC(=O)O)C(C)C
Cmax (human; 14 mg, model-estimated mean): 20.5 nM

N#Cc1ccc2c(c1)[C@H]1CCCN(C(=O)c3ccc4[nH]cnc4c3)[C@H]1C2
Cmax (human; oral, 240 mg once daily, after first dose): 13800 nM

Cc1noc(C)c1-c1cc(C(O)(c2ccccn2)c2ccccn2)c2nc(C3CC3)[nH]c2c1
Cmax (human patients; oral, 4 mg, cycle 1 day 8, monotherapy): 407 ng/mL

CN(C)C(=O)c1cc2cnc(Nc3ccc(N4CCNCC4)cn3)nc2n1C1CCCC1
Cmax (human, normal renal function; oral, 400 mg, single dose, adjusted geometric mean): 356 ng/mL

CN(C)CCCNC(=O)/C(=C/CCCCC(=O)NO)COc1cccc2ccccc12
Cmax (human; intravenous, 250 mg/m2, first day single dose): 8060 ng/mL

CNC(=O)c1ccccc1Sc1ccc2c(/C=C/c3ccccn3)n[nH]c2c1
Cmax (human, normal hepatic function (NCI); single dose, geometric mean, total drug): 24.6 ng/mL

COCCOc1cnc2ccn([C@H](C)c3nnc4c(F)cc(-c5cnn(C)c5)cn34)c(=O)c2c1
Cmax (human patients, dose escalation; oral, 300 mg once daily, day 1): 4010 ng/mL

C[C@H](Oc1ccc(Br)cc1-c1ccon1)C(=O)O
Cmax (LC-MS/MS, non-compartmental; human; 600 mg once daily, day 10, multiple ascending dose, mean): 26200 ng/mL

C[C@H](CCC(=O)O[C@@H]1O[C@H](C(=O)O)[C@@H](O)[C@H](O)[C@H]1O)[C@H]1CC[C@H]2[C@@H]3[C@H](O)C[C@@H]4C[C@H](O)CC[C@]4(C)[C@H]3CC[C@]12C
Cmax (human; concentration not given, endogenous control diurnal): 32.1 ± 5.2 nM

Cn1cc(-c2ccc(S(=O)(=O)[C@@H]3C[C@@H](C(=O)NC4(C#N)CC4)N(C(=O)C4(C(F)(F)F)CC4)C3)c(C(F)(F)F)c2)cn1
Cmax (noncompartmental analysis; human; oral, 50 mg, day 1, with food, geometric mean): 453 ng/mL
